Measured values collected from several papers.
Lines come from different studies, so protocols differ. Values joined by “and” are separate records of one study, mostly repeats; a detail may differ.
TDP1: Tyrosyl-DNA phosphodiesterase 1 (TDP1, Homo sapiens, UniProt Q9NUW8)
UniProt Q9NUW8, sequence (whole entry, looked up): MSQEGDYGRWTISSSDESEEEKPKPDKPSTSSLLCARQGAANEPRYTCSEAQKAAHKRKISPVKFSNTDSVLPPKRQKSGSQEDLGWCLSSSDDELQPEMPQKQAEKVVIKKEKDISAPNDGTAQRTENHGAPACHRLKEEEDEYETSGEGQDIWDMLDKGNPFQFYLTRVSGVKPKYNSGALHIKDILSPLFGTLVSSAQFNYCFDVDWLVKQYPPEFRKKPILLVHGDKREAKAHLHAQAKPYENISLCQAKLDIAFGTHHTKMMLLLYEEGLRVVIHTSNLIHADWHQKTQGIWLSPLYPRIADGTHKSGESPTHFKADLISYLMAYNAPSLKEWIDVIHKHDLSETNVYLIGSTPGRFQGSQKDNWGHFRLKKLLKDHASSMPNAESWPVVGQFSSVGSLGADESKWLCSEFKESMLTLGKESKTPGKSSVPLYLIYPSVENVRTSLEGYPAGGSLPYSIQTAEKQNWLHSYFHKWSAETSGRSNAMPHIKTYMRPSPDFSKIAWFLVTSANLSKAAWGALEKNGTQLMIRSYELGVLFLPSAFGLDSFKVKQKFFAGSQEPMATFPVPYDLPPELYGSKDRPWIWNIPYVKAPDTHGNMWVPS
Uncharacterized protein: Uncharacterized protein (Trypanosoma brucei brucei, UniProt Q386Q8)
UniProt P35916, sequence (whole entry, looked up): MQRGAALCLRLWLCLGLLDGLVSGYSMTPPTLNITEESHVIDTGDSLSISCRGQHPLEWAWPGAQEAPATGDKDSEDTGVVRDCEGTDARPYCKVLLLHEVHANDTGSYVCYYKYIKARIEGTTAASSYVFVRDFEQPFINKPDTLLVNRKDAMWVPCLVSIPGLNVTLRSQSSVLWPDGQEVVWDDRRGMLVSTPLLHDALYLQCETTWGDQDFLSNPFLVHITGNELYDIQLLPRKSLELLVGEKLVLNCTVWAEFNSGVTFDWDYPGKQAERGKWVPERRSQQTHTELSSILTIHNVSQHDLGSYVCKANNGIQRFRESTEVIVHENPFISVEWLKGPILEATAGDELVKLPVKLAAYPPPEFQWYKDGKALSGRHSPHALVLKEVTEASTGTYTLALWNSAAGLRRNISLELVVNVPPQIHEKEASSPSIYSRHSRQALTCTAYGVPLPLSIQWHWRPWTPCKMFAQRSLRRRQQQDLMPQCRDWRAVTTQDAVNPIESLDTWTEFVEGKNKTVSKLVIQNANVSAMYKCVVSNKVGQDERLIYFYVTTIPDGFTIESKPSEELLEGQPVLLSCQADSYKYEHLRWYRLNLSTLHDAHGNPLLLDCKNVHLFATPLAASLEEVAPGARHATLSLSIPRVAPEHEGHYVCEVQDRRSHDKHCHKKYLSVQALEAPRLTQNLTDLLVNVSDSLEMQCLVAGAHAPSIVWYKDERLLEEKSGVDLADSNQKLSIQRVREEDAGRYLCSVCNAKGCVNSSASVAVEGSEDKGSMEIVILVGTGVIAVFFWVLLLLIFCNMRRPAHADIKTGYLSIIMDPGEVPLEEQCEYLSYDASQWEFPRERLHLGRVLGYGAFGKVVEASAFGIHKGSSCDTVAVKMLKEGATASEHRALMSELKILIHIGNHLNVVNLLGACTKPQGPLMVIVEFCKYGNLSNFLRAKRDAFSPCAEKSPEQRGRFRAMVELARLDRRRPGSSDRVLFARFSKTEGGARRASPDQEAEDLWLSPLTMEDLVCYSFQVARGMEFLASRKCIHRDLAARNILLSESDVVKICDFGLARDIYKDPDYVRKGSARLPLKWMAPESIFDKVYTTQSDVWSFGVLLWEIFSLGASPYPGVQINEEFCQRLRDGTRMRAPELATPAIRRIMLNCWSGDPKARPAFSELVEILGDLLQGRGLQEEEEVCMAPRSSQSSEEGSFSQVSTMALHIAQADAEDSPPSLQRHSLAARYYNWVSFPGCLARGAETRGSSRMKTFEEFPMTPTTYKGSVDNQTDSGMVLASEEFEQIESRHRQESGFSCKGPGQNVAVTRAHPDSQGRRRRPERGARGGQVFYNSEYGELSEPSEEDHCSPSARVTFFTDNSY

Compound	target or system	test	test system	conditions	how to read	endpoint	value
CCOc1ccc(/C=C/C(=O)Nc2cc(Nc3nccc(-c4cn(C)c5ccccc45)n3)c(OC)cc2N(C)CCN(C)C)cc1	NCI-H1975	cell growth or viability, MTT	–	0.5 µM, 72 h	–	inhibition	69.1%
CCN(CC)CC(=O)Nc1cccc(-n2cc(-c3ccc4ccc(-c5cn(-c6cccc(NC(=O)CN(CC)CC)c6)nn5)cc4c3)nn2)c1	RCC4	PCR angiogenesis array, refers to: TIMP2	–	5 x IC50, 2 h, normoxia	baseline: untreated	fold regulation	-1.05 fold
NC(=O)c1ccc(-c2ccccc2Cl)c2c3c([nH]c12)CC[C@@H](N)C3	RKO	cell growth or viability	–	–	–	IC50	0.00274 µM
Nc1ncc(-c2cc(-c3cnn(CC(F)(F)F)c3)ncc2F)nc1C(=O)NC1CNCC(F)C1 (centres unmarked)	GRK2	KINOMEscan	–	1 µM	baseline: DMSO control	remaining binding	66%
CCc1n(CC(=O)O[C@@H]2C[C@H](C)CC[C@H]2C(C)C)c2ccccc2[n+]1C	HTS cells (mouse)	gene microarray, refers to: COX6A2	–	1 µM, 12 h, unit not given	baseline: untreated	mRNA level	3.8
CC(=O)Oc1ccccc1C(=O)[Se]CC(=O)Nc1cccc(C(F)(F)F)c1	NCI60 leukaemia subpanel	NCI60 five-dose screen	–	–	–	GI50	4.27 µM
CC(C)c1ccc(N(C)c2ccc3c(c2)OCC[C@H]3CNc2cnccc2C(=O)O)cc1	NCI-H1930	cell growth or viability, ATP luminescence	–	7 days	–	IC50	0.02 µM
O=C(Nc1nnc2c1c(-c1ccc(Cl)cc1)nc1sc(=Cc3ccco3)c(=O)n12)c1ccccc1 (mixture of isomers)	HOP-62	SRB	–	10 µM, NCI60 single-dose screen	baseline: untreated	cell growth	31.1%
COc1cc(N(C)CCN(C)C)c(NC(=O)/C=C/c2ccc(-c3ccccc3)cc2)cc1Nc1nccc(-c2cn(C)c3ccccc23)n1	NCI-H1975	cell growth or viability, MTT	–	0.5 µM, 72 h	–	inhibition	69.9%
CNS(=O)(=O)Nc1nccc(Cc2c(C)c3ccc(Oc4ncccc4F)cc3oc2=O)c1F	EFE-184	cell viability	–	7 days	–	IC50	> 1 µM
O=C(C[Se]C(=O)c1cc2ccccc2s1)Nc1cccc(C(F)(F)F)c1	NCI60 melanoma subpanel	total growth inhibition, inhibitor	–	five-dose	–	mean TGI	2.93 µM
O=C(O)c1ccc(Nc2c(-c3ccc(CON=Cc4cccc(NC(=O)c5ccc(Cl)cc5)c4)cc3)nc3cc(-c4ccccc4)ccn23)cc1	TDP1	enzyme activity, inhibitor	–	100 µM, unpurified compound	–	inhibition	63.5%
O=C(C[Se]C(=O)c1cc2ccccc2o1)Nc1cccc(C(F)(F)F)c1	NCI60 CNS subpanel	cell growth	–	10 µM, 48 h, one-dose	–	mean growth percent	-86.6%
COc1ccc(NC(=O)c2c(Nc3ccccc3)sc(C(=O)N/N=C/c3ccc(OC)c(OC)c3)c2NC(C)=O)cc1	HepG2	cell growth or viability, SRB	–	1 µM, 48 h	–	viability	65%
C=CC(=O)Nc1cc(Nc2nccc(-c3c(-c4ccc(-c5ccccc5)cc4)n(C)c4ccccc34)n2)c(OC)cc1N(C)CCN(C)C	NCI-H1975	cell growth or viability, MTT	–	0.5 µM, 72 h	–	inhibition	64.1%
CCCCCCCCCCCC(=O)N[C@H](CO)C[C@@H](O)c1ccccc1	HeLa	CERT activity, HPLC-MS/MS lipidomics, refers to: sphingomyelin 22	–	1 µM, 24 h, not cell-number normalised	–	sphingomyelin level	47100 pmol/sample and 48800 pmol/sample and 54200 pmol/sample
COc1ccc(NC(=O)c2ccc3[nH]c(-c4ccc(N(C)C)cc4)nc3c2)cn1	HCEC-hTERT	IncuCyte	–	concentration not given, 18 h	–	dead cell to confluence ratio	82 and 1.99 and 9.16
CN1CCCNC(=O)c2cccc(c2)C(=O)NCCCN(C)CCCNc2cccc3c2C(=O)c2cccc(c2C3=O)NCCC1	SAS	RNA-seq, refers to: MT-ND3 mRNA	–	5 µM, 24 h	baseline: untreated cells	log2 fold change	-4.52
O=C1CCCC2=C1C(c1c[nH]c3ccccc13)c1cc(Br)ccc1O2 (centres unmarked)	3T3-L1 preadipocytes	adipogenesis, Oil Red O staining	–	IC20, 14 days, single replicate	–	lipid content	0.591 OD492
Cc1ncsc1-c1ccc(C(C)NC(=O)C2CC(O)CN2C(=O)C(NC(=O)CCCCCCCCCCN2CCCC(Nc3ncc(Cl)c(Nc4ccccc4S(=O)(=O)C(C)C)n3)C2)C(C)(C)C)cc1 (centres unmarked)	22Rv1	RNA-seq, refers to: SPRED3 mRNA	–	concentration not given	baseline: DMSO	log2 fold change	-2.49
C=CC(=O)Nc1cccc(Cn2ncc3cnc(Nc4cnn(CCOC)c4)nc32)c1	ABL2 human	binding, KINOMEscan	–	100 nM	lower = stronger binding	percent of control	15%

Compound	target or system	test	test system	conditions	how to read	endpoint	value
Cn1c(=O)n(C2CCC(=O)NC2=O)c2ccc(C3CCN(CC(=O)Nc4cccc(CS(=O)(=O)N5CC[C@H](Nc6cccc(-c7sc(C(=O)O)c(OCC(=O)O)c7Cl)c6)CC5(C)C)c4)CC3)cc21 (some centres unmarked)	B16-F10	HTRF, refers to: phospho-STAT1 Tyr701	–	0.041 µM, with: IFN-γ	baseline: min-max normalised	pSTAT1 level	58% and 56.1% and 58.8% and 64.1% and 64.7% and 64.5%
CN(C)C(=O)c1ccnc(N2Cc3cn(Cc4cc(Cl)cc(Cl)c4)nc3C2)n1	HEK293 expressing GluA1 and GluA2	glutamate excitotoxic cell death, CellTox Green	–	with: glutamate	–	IC50	0.068 µM
O=C(C[Se]C(=O)c1cccnc1Nc1cccc(C(F)(F)F)c1)Nc1cccc(C(F)(F)F)c1	NCI60 CNS subpanel	NCI60 five-dose screen	–	–	–	mean TGI	3.82 µM
C1=[N+]2CCCC[N+]3=Cc4ccc5[n]4[Au-]23[n]2c1ccc2-c1nc2ccccc2nc1-5.F[P-](F)(F)(F)(F)F	HOP-62	NCI60 five-dose screen	–	–	–	TGI	5.23 -log M
Cn1ncc2cc(-c3cncc(Cl)c3N3CCC4(CCNC4=O)CC3)ccc21	LS174T	gene expression, microarray, refers to: SPAG4 mRNA	–	concentration not given, 4 h	baseline: untreated cells	log2 fold change	1.77
COc1ccccc1-c1ccncc1C(=O)Nc1nnc(OCc2ccc(Cl)cc2)s1	MDA-MB-231	–	–	12 µM, single replicate	–	colony count	19 and 21 and 25
CCOC(=O)c1ccc(-n2c(N)c(C#N)c(SC)c(C#N)c2=O)cc1	HepG2	cell growth or viability, MTT	–	3.125 µM, 24 h	–	viability	99.8%
C=C(NC(=O)c1csc(-c2nc3c(cc2O)-c2nc(cs2)C(=O)NC(C(C)O)C(=O)NC(=C(C)OC)c2nc(cs2)C(=O)NC2c4nc(cs4)C(=O)NC(COC(=O)c4c5c6c(cccc6n4O)COC(=O)C(OC4CC(C)(O)C(N(C)C)C(C)O4)C2OC5)c2nc-3cs2)n1)C(N)=O (centres unmarked)	–	–	ICR mice, Streptococcus pneumoniae ATCC 49169 infected, immunocompromised, blood	intravenous, 32 mg/kg/day twice daily	–	AUC(0-inf)	1820 ng·h/mL
Cc1cc(Cl)cc(-c2ccnc3cc(CN4C(=O)C5C(C4=O)C5(C)C)sc23)c1C[C@@H]1CNCCO1 (some centres unmarked)	CHP-212 parental	annexin V/PI flow cytometry	–	1 µM, 48 h	–	early apoptotic cells	35.5% and 37.4% and 37.6%
CCc1ccc(-c2ccc(/C=C/C(=O)Nc3cc(Nc4nccc(-c5cn(C)c6ccccc56)n4)c(OC)cc3N(C)CCN(C)C)cc2)cc1	NCI-H1975	cell growth or viability, MTT	–	0.5 µM, 72 h	–	inhibition	58.4%
COc1ccc2c(c1)OC1=C(C(=O)CCC1)C2c1c[nH]c2ccccc12 (centres unmarked)	3T3-L1 preadipocytes	adipogenesis, Oil Red O staining	–	IC20, 14 days, single replicate	–	lipid content	0.501 OD492
Nc1c(S(=O)(=O)O)cc(Nc2cccc(S(N)(=O)=O)c2)c2c1C(=O)c1ccccc1C2=O	primary mouse articular chondrocytes	Western blot, refers to: Phlpp1	–	25 µM, days 0-6 and 0-9	baseline: vehicle	protein level	50 to 70%
COc1ccc2c(c1OC)C(=O)N(c1ccc(Cl)c(Cl)c1)C2	Uncharacterized protein	inhibitor, coupled colorimetric	Trypanosoma brucei	–	–	IC50	> 100 µM
COc1ccc(Nc2nc(Cl)c(C=NOCc3ccc4nc(-c5ccccc5)c(Nc5ccc(C(=O)O)cc5)n4c3)s2)cc1 (mixture of isomers)	TDP1	enzyme activity, inhibitor	–	100 µM, unpurified compound	–	inhibition	35.1%
COc1ccc(C2=Nn3c(nnc3C3CCCCC3)SC2)cc1	Uncharacterized protein	inhibitor, coupled colorimetric	Trypanosoma brucei	–	–	IC50	318 µM
COC1CN([C@H]2CC[C@H]([C@@]3(C)Oc4c(Cl)cc(C(=O)NCc5c(SC)cc(C)[nH]c5=O)c(C)c4O3)CC2)C1	–	RNA-seq, refers to: UBAP1 mouse homolog	mouse, HT-1376 xenograft, whole blood	dose not given	baseline: vehicle	log2 fold change	0.467
O=C(C[Se]C(=O)c1ccccc1Nc1cccc(C(F)(F)F)c1)Nc1cccc(C(F)(F)F)c1	NCI60 CNS subpanel	NCI60 five-dose screen	–	–	–	mean TGI	3.36 µM
Cc1nn(-c2cccc(N)c2)c(=O)c2cnc(Nc3ccc(N4CCNCC4)cc3)nc12	Vascular endothelial growth factor receptor 3 (FLT4, Homo sapiens, UniProt P35916)	enzyme activity, inhibitor	–	–	–	IC50	> 10 µM
O=C(C[Se]C(=O)C12CC3CC(CC(C3)C1)C2)Nc1cccc(C(F)(F)F)c1	NCI60 melanoma subpanel	cell growth, inhibitor	–	five-dose	–	GI50	3.32 µM
C=CC(=O)N1[C@@H](c2ccc3c(c2)OCO3)c2[nH]c3ccccc3c2C[C@H]1C(=O)NC1CC1	rat DRG neurons	–	–	0.01372 µM, 48 h, with: vincristine 40 nM	–	mean neuron degeneration	82.9%

Some of these lines once more:
Compound	target or system	test	test system	conditions	how to read	endpoint	value
CCOC(=O)c1ccc(-n2c(N)c(C#N)c(SC)c(C#N)c2=O)cc1	HepG2	cell growth or viability, MTT	–	3.125 µM, 24 h	–	viability	99.8%
C=C(NC(=O)c1csc(-c2nc3c(cc2O)-c2nc(cs2)C(=O)NC(C(C)O)C(=O)NC(=C(C)OC)c2nc(cs2)C(=O)NC2c4nc(cs4)C(=O)NC(COC(=O)c4c5c6c(cccc6n4O)COC(=O)C(OC4CC(C)(O)C(N(C)C)C(C)O4)C2OC5)c2nc-3cs2)n1)C(N)=O (centres unmarked)	–	–	ICR mice, Streptococcus pneumoniae ATCC 49169 infected, immunocompromised, blood	intravenous, 32 mg/kg/day twice daily	–	AUC(0-inf)	1820 ng·h/mL
Cc1cc(Cl)cc(-c2ccnc3cc(CN4C(=O)C5C(C4=O)C5(C)C)sc23)c1C[C@@H]1CNCCO1 (some centres unmarked)	CHP-212 parental	annexin V/PI flow cytometry	–	1 µM, 48 h	–	early apoptotic cells	35.5% and 37.4% and 37.6%
